Measurements of several laboratories.
Each line is one published result; not all experiments were run side by side. ± gives the spread as reported.
UniProt Q15561, sequence (whole entry, looked up): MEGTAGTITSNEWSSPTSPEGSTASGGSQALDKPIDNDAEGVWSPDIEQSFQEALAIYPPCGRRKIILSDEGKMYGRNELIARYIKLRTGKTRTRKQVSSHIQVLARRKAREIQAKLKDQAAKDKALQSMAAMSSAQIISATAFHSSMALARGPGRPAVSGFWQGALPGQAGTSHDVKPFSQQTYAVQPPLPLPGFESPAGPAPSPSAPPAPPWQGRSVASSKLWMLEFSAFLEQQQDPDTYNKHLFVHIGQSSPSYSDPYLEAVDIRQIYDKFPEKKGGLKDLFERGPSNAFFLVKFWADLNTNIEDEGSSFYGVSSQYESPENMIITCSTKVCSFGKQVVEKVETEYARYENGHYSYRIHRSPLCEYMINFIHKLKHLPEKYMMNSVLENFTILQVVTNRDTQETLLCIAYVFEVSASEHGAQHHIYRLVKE
UniProt P17302, sequence (whole entry, looked up): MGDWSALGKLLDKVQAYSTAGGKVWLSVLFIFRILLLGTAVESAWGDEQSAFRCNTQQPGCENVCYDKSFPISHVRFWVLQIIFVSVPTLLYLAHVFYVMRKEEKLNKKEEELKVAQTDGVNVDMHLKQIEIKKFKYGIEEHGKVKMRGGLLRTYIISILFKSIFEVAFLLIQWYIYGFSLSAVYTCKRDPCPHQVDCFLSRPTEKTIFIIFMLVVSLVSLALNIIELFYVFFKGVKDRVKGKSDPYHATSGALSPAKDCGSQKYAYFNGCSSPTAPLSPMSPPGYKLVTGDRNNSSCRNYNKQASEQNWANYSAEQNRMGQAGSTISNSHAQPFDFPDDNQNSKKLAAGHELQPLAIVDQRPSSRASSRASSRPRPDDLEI
UniProt P16389, sequence (whole entry, looked up): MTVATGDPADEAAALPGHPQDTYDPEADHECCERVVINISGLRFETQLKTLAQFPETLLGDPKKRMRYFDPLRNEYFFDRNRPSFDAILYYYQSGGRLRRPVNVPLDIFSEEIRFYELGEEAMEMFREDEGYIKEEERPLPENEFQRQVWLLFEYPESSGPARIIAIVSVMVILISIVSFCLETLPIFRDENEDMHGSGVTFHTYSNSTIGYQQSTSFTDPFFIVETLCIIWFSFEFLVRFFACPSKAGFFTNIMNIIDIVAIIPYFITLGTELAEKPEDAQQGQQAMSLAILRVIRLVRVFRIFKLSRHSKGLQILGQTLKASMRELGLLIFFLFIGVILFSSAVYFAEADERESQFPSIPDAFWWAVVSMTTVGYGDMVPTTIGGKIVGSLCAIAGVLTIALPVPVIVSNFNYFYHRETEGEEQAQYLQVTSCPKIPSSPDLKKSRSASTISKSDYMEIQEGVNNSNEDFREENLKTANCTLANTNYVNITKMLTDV
UniProt P00383, sequence (whole entry, looked up): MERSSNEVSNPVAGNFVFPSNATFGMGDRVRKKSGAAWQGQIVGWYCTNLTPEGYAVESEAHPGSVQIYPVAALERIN
UniProt P97612, sequence (whole entry, looked up): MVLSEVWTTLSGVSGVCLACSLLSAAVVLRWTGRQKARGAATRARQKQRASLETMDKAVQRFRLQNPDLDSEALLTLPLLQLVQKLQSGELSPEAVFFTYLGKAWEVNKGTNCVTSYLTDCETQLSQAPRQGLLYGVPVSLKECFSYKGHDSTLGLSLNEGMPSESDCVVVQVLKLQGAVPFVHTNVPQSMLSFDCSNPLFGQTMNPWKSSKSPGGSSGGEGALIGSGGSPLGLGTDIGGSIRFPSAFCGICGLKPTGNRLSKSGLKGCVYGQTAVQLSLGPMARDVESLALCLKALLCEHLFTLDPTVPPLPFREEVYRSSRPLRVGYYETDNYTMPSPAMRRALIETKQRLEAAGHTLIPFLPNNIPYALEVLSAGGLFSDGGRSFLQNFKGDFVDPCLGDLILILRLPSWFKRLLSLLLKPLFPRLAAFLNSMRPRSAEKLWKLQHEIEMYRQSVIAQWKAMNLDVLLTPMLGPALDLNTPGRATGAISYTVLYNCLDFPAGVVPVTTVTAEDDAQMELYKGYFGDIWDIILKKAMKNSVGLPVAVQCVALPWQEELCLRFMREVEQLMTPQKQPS
UniProt P51683, sequence (whole entry, looked up): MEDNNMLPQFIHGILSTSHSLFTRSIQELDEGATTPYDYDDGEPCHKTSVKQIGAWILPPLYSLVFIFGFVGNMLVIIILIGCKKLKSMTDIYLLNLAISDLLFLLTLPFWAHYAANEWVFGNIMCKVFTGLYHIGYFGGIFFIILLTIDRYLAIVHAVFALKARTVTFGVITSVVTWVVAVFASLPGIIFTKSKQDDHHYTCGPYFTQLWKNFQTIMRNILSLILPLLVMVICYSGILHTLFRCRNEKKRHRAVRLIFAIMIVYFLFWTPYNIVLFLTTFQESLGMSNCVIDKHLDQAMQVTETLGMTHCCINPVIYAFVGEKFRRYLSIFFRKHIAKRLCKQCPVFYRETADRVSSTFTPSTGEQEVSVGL
UniProt Q99685, sequence (whole entry, looked up): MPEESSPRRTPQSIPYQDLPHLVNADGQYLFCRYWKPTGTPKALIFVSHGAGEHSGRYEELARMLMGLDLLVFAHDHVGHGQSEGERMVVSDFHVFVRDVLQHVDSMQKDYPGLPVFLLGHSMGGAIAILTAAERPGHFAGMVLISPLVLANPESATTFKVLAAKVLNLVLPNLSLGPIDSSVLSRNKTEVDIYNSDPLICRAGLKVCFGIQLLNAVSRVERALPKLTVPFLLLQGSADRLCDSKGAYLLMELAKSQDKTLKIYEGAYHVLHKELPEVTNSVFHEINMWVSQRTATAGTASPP
UniProt P55072, sequence (whole entry, looked up): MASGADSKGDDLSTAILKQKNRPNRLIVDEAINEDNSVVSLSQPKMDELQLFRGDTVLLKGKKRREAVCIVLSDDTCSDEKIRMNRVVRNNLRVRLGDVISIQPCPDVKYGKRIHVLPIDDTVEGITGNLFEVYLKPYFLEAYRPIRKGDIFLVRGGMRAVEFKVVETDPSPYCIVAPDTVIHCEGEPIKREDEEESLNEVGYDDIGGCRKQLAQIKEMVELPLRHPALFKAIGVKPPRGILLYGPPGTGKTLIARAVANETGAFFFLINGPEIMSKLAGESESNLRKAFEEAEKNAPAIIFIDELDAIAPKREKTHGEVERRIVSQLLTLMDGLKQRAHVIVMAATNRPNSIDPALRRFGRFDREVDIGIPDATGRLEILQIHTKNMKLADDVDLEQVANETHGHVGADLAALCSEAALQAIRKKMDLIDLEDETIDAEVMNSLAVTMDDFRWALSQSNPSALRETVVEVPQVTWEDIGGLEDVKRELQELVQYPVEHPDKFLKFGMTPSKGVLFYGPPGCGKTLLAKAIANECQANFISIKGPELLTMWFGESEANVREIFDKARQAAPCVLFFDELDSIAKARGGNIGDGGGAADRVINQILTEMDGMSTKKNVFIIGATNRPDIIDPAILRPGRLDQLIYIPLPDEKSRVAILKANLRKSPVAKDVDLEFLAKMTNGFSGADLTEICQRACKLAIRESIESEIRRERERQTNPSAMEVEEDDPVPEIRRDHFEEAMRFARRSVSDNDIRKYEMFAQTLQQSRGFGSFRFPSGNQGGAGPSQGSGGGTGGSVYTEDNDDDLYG
UniProt Q09470, sequence (whole entry, looked up): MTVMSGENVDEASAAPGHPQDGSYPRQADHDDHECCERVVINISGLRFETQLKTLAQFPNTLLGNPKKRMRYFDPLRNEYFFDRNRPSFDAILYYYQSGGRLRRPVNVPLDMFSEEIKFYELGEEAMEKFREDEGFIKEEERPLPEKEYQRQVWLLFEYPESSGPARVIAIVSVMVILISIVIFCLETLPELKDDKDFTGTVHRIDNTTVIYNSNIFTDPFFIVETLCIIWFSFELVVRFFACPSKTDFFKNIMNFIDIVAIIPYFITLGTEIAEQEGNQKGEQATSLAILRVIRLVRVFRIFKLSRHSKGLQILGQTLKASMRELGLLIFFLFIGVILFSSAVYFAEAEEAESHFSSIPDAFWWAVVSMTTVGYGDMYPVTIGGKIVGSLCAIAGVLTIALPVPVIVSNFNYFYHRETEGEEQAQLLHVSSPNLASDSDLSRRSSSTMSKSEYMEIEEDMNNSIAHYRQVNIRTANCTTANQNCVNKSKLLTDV
UniProt Q13563, sequence (whole entry, unmodified, looked up): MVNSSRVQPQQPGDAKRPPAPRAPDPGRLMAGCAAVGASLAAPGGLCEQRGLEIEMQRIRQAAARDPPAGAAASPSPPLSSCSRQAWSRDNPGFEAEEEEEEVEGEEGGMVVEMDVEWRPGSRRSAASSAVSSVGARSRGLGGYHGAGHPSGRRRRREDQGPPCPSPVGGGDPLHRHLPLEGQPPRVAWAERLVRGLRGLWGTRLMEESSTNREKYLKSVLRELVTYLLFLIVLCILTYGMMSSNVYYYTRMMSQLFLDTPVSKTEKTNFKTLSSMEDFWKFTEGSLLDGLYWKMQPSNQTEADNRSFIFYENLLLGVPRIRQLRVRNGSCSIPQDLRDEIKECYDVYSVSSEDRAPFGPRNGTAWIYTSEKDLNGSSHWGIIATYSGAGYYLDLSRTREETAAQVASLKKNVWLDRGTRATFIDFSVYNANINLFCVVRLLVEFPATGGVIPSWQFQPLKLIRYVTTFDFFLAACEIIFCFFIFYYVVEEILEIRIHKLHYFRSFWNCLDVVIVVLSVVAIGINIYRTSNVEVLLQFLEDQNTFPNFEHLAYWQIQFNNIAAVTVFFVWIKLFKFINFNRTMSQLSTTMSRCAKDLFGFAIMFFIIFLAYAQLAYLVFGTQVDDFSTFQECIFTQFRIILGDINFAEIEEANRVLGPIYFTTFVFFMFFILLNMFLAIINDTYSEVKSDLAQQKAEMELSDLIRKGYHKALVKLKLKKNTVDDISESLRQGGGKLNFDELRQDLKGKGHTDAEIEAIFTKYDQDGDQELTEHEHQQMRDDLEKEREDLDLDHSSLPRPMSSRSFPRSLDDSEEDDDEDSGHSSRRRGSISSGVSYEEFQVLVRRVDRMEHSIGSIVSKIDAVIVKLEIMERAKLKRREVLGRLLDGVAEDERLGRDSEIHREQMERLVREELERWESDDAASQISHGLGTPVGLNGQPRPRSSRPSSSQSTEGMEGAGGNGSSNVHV

Compound	target	test	test system	setting	IC50
O=C(OC(C(F)(F)F)C(F)(F)F)N1CCC(CCn2ccc3ncccc32)CC1	Monoglyceride lipase (MGLL, Homo sapiens, UniProt Q99685)	enzyme activity, inhibitor	–	–	300 nM
COc1ccc2c(c1OC)C(C(Cl)(Cl)Cl)N1CCc3cc4c(cc3C1=C2)OCO4 (centres unmarked)	Pancreatic alpha-amylase (Homo sapiens, UniProt P04746)	enzyme activity, inhibitor	–	–	117000 nM
COc1cccc2c(NCc3ccccc3)nc(Nc3cccc(F)c3)nc12	Transitional endoplasmic reticulum ATPase (VCP, Homo sapiens, UniProt P55072)	enzyme activity, inhibitor	–	–	500 nM
O=C(O)c1ccc2[nH]c(-c3ccc(OCCCCCCCCCCCCOc4ccc(-c5nc6cc(C(=O)O)ccc6[nH]5)cc4)cc3)nc2c1	Dihydrofolate reductase type 2 (Escherichia coli, UniProt P00383)	enzyme activity, inhibitor	–	pH 7	> 200000 nM
CC1OC(Oc2c(-c3ccc(O)cc3)oc3cc(O)cc(O)c3c2=O)C(OC(=O)C=Cc2ccc(O)cc2)C(O)C1OC(=O)C=Cc1ccc(O)cc1 (centres unmarked)	C-C chemokine receptor type 2 (Ccr2, Mus musculus, UniProt P51683)	ligand displacement in cells, radioligand	–	–	414 nM
CC[C@H](C)[C@H](NC(=O)[C@H](CCC(=O)O)NC(=O)[C@@H](NC(=O)[C@H](CCC(N)=O)NC(=O)[C@@H](N)CCCCN)[C@@H](C)CC)C(=O)N[C@@H](CCCCN)C(=O)N[C@@H](CCCCN)C(=O)N[C@@H](Cc1ccccc1)C(=O)N[C@@H](CCCCN)C(=O)O	Gap junction alpha-1 protein (GJA1, Homo sapiens, UniProt P17302)	hemichannel charge transfer, inhibitor, whole-cell voltage clamp	HeLa-Cx43	intracellular, at +70 mV	6500 nM
C=CCNC(=O)[C@H](CCc1ccccc1)NC(=O)[C@H](CC(=O)NCC(C)(C)C)NC(=O)CCc1ccccc1	Proteasome component C5/PSMB5 (Homo sapiens, UniProt P20618+P28074)	inhibitor	–	–	12 nM
CC(C)C[C@H](NC(=O)OCc1cccc(Cl)c1)C(=O)N[C@@H](C[C@H]1CCNC1=O)C(=O)C(=O)NC1CC1	Genome polyprotein, 3C protease (rhinovirus B14, UniProt P03303)	3C protease activity, inhibitor, FRET	–	–	160 ± 10 nM
CCCC(=O)Oc1c(S(=O)(=O)c2ccc(C)cc2)c(C)nn1C(C)(C)C	Polycystin-2 (Homo sapiens, UniProt Q13563, F604P)	ion current, inhibitor, two-electrode voltage clamp	Xenopus oocytes	–	6000 nM
OC[C@@]12CCC[C@@H]1CN(c1cc(-c3ccccc3)nc3ccnn13)C2	Transcriptional enhancer factor TEF-3, YAP-binding domain (TEAD4, Homo sapiens, UniProt Q15561)	–	–	–	275 nM
C[C@H](NC(=O)C(=O)O)C(=O)O	Lysine-specific demethylase 4E (KDM4E, Homo sapiens, UniProt B2RXH2)	enzyme activity, inhibitor	–	–	285000 nM
O=C(NCc1cccc(CN2CCCC2=O)c1)NCC(c1ccccc1)c1ccccc1	KCNA2/KCNA1 (Homo sapiens, UniProt P16389+Q09470)	potassium current, inhibitor, automated patch clamp	CHO-K1, concatemer expressing	–	2980 nM
O=C(Nc1ccc(C(F)(F)F)nc1)N1CCC(Cc2cccc(Oc3ccc(C(F)(F)F)cn3)c2)CC1	Fatty-acid amide hydrolase 1 (Faah, Rattus norvegicus, UniProt P97612)	enzyme activity, inhibitor	–	with preincubation	> 10000 nM
C[C@H](OP(=O)(O)O)[C@H]1NC(=O)[C@H](CCCNC(=N)N)NC(=O)[C@@H](CCCNC(=N)N)NC(=O)[C@H](Cc2c[nH]c3ccccc23)NC(=O)[C@H](Cc2ccc(F)cc2)NC(=O)[C@H](Cc2ccc3ccccc3c2)NC(=O)[C@@H]2CCCCN2C1=O	Peptidyl-prolyl cis-trans isomerase NIMA-interacting 1 (PIN1, Homo sapiens, UniProt Q13526)	fluorescence anisotropy competition	–	with: FITC-labelled probe	1810 ± 560 nM

For quick reference, copied from above:
Compound	target	test	test system	setting	IC50
CC1OC(Oc2c(-c3ccc(O)cc3)oc3cc(O)cc(O)c3c2=O)C(OC(=O)C=Cc2ccc(O)cc2)C(O)C1OC(=O)C=Cc1ccc(O)cc1 (centres unmarked)	C-C chemokine receptor type 2 (Ccr2, Mus musculus, UniProt P51683)	ligand displacement in cells, radioligand	–	–	414 nM
